Measurements collected from several papers.
Each numbered part is a random draw from the data of one study; scales do not carry over between parts. Positions count from the first letter of the parent shown.

Study 1
Target: CCND3, cyclin fold, Cln2 fusion (human)
Method: yeast growth competition, sequencing
Sample: yeast
Notes: weak parent motif
Relative to: not given
Direction: higher = stronger binding
Parent: viral docking peptide; KGVKRKLFAEDSS; partner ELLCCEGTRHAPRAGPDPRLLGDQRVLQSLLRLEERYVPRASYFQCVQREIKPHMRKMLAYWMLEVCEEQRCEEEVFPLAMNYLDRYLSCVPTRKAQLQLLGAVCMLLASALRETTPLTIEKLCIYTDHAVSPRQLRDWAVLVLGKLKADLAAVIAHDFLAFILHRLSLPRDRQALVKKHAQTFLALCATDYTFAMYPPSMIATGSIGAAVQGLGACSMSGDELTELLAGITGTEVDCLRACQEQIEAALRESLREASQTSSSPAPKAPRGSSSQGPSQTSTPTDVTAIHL
| Substitution | normalised enrichment score |
| --- | --- |
| KGEKRKLFAEDSS [V3E] | 0.206 |
| KCVKRKLFAEDSS [G2C] | 0.18 |
| KGVKLKLFAEDSS [R5L] | -0.298 |

Study 2
Target: TAR DNA-binding protein 43, full length, His tag (TARDBP, Homo sapiens, UniProt Q13148, residues 1-414)
Method: RNA Bind-n-Seq
Molecule type: RNA
Sample: in vitro
Tested at: 20 nM
Notes: 6-mer, flanks averaged, single round
With: 150 mM LiCl
Relative to: input library
Direction: higher = stronger binding
| Oligonucleotide | 6-mer enrichment (R) |
| --- | --- |
| GAUCGA | 0.919 |
| CGACCA | 0.814 |
| CCGUUG | 0.944 |
| UACAGA | 0.813 |
| CGGUCU | 0.864 |
| CUAUCC | 0.876 |
| UGCGAG | 1.11 |
| AAGCAU | 0.846 |

Study 3
Target: Signal transducer and activator of transcription 1-alpha/beta, full length (STAT1, Homo sapiens, UniProt P42224, residues 1-750)
Chain of UniProt P42224 (whole entry, looked up): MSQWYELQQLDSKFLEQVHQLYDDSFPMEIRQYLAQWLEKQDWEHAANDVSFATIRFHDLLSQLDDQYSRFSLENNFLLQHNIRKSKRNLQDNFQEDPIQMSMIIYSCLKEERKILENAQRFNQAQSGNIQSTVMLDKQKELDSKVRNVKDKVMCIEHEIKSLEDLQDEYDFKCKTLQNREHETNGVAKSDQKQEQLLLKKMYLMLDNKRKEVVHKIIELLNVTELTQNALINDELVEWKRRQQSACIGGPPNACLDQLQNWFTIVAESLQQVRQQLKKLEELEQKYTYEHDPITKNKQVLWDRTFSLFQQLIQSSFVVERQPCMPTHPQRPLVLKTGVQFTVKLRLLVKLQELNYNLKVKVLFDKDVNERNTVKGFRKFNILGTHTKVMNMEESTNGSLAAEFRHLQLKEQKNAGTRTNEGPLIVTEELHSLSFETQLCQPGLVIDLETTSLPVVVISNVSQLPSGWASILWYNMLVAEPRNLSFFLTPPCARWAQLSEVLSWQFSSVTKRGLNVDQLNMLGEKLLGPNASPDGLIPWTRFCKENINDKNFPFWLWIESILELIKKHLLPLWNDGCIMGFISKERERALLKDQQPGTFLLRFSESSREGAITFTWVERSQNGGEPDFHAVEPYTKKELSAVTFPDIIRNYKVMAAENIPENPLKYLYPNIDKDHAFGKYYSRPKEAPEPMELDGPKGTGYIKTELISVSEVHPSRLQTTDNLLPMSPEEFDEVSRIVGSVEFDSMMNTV
Method: protein-binding microarray
Molecule type: hairpin DNA
Sample: in vitro
Tested at: not given
Notes: whole hairpin DNA, median over replicate spots
Relative to: not given
Direction: higher = stronger binding
Shared flanks, not repeated: GAGGCC … GGCCTCACACTCTTTCCCTACACG
| Oligonucleotide | median fluorescence [a.u.] |
| --- | --- |
| GTTCCCGGAAGCCTCCTGGCTTCCGGGAAC (5mC at 36) | 7070 |
| TTTCCCTGAAGCCTCCTGGCTTCAGGGAAA (5mC at 12) | 1060 |
| TCTCCCGGAAGCCTCCTGGCTTCCGGGAGA (5mC at 8) | 7230 |
| TTTCCCAGAAGCCTCCTGGCTTCTGGGAAA (5mC at 12) | 1500 |
| TTTCCCCCAAGCCTCCTGGCTTGGGGGAAA | 914 |
| TTTCCCGAAAGCCTCCTGGCTTTCGGGAAA | 1510 |
| TTTCCCGGAAGCCTCCTGGCTTCCGGGAAA (5mC at 30) | 11900 |
| TCGCCCGGAAGCCTCCTGGCTTCCGGGCGA (5mC at 34) | 972 |

Study 4
Target: HLA class I histocompatibility antigen, A alpha chain, allele A*25:01 (Homo sapiens, UniProt P04439)
Observed: peptide-MHC binding
Molecule type: peptide
Tested at: concentration not given
| Sequence | binding |
| --- | --- |
| AELIDSFTW | inactive |
| FGAAVSLLF | inactive |
| AMDTHLYFE | inactive |

A few entries again (study 2):
| Oligonucleotide | 6-mer enrichment (R) |
| --- | --- |
| CUAUCC | 0.876 |
| UGCGAG | 1.11 |
